Measured values gathered from unrelated publications.
Protocols differ between the studies behind these lines. Several values in a cell are separate wells, animals, samples, runs or records. ± marks the error that the study gave. Values after ≈ are worked out from the molar mass of the structure shown.

CC[C@@]1(O)C(=O)OCc2c1cc1n(c2=O)Cc2cc3c(CN(C)C)c(O)ccc3nc2-1
cumulative urinary recovery (patients; intravenous, dose not given, 24 h, day 2): 105 ± 16.7%

CC(C(=O)NCC(=O)NCC(CNC(=O)CNC(=O)C(C)N1CCN(CC(=O)[O-])CCN(CC(=O)[O-])CCN(CC(=O)[O-])CC1)(CNC(=O)CNC(=O)C(C)N1CCN(CC(=O)[O-])CCN(CC(=O)[O-])CCN(CC(=O)[O-])CC1)CNC(=O)CNC(=O)C(C)N1CCN(CC(=O)[O-])CCN(CC(=O)[O-])CCN(CC(=O)[O-])CC1)N1CCN(CC(=O)[O-])CCN(CC(=O)[O-])CCN(CC(=O)[O-])CC1.[Gd+3].[Gd+3].[Gd+3].[Gd+3] (centres unmarked)
lanthanide concentration (cynomolgus monkey, kidney cortex; dose not given, day 58): 0.47 ± 0.32 nmol/g

C=CC(=O)N1CCC([C@@H]2CCNc3c(C(N)=O)c(-c4ccc(Oc5ccccc5)cc4)nn32)CC1
stability relative error (rat plasma; 2 ng/mL, 21 days, -80 °C; relative to: nominal concentration): -6.4%

Cc1ccc(O)c(-n2nc3ccccc3n2)c1
daily dermal uptake, percentile (exposure assessment; human, age 21-60 years; concentration not given, spray sunscreen, 95th percentile): 3150 ng/kg body weight/day

O=C(NO)[C@H]1COC(c2c[nH]c3ccc(F)cc23)=N1
logD (octanol/buffer; pH 7.4): 1.7

O=C(c1cc(-c2ccc3c(c2)OCCO3)nc2ccccc12)N1CCC(Cc2ccccc2)CC1
hydrodynamic radius (dynamic light scattering; buffer; 20 µM): 4.45 nm

CC1(C)OC[C@H](c2ccc(C(F)(F)F)cc2)N[C@@H]1c1ccc(Cl)c(Cl)c1
logD (shake-flask, 1-octanol/buffer; pH 7.4): > 4.7

NC(=O)c1ccc(C(=O)Nc2cc(C3CC3)[nH]n2)cc1
logD (octanol/buffer; 67 µM, pH 7.4): 1.33

C/C=C/C[C@@H](C)C(=O)[C@H]1C(=O)N[C@@H](C(C)C)C(=O)N(C)CC(=O)N(C)[C@@H](CC(C)C)C(=O)N[C@@H](C(C)C)C(=O)N(C)[C@@H](CC(C)C)C(=O)N[C@@H](C)C(=O)N[C@H](C)C(=O)N(C)[C@@H](CC(C)C)C(=O)N(C)[C@@H](CC(C)C)C(=O)N(C)[C@@H](C(C)C)C(=O)N1C
total plasma concentration (Sprague Dawley rat, plasma; intravenous infusion, 0.09 mg/h/kg, 4 h, 4.5 h constant infusion): 404 ng/mL

O=C(COc1ccc(Cl)cc1)NC12CC(c3nnc([C@H]4C[C@@H](OC(F)(F)F)C4)o3)(C1)C2
participants with TEAE (human both sexes; oral, 100 mg single dose): 66.7%

O=C(O)CN1CCCN2CCN(Cc3ccccc3)CCCN(CC1)Cc1cccc(n1)C2
intact complex (64Cu complex in rat plasma; 0.5 h, 37 °C): 99%

FC(F)(F)c1ccc(CNc2ccc(Cc3c[nH]c4ncc(Cl)cc34)cn2)cn1
adverse event incidence (measured: Nausea; patients with advanced solid tumours; oral, dose not given, all grades, possibly related to drug): 35%

Cc1c(C(=O)O)ccc2c3n(nc12)[C@@H]1[C@H](C3)N(CC2CC2)[C@@]2(C(=O)Nc3cc(Cl)ccc32)[C@H]1c1cccc(Cl)c1F
adverse event incidence (phase Ia trial, measured: Constipation; cancer patients; oral, dose not given, all patients all grades): 18.5%

OCc1nc2ccc(NCc3ccc(C(F)(F)F)cc3)cc2[nH]1
tissue concentration (Balb/c mouse, male, lungs; oral, 10 mg/kg, 6 h): 183 ± 37.6 ng/g

CN1C(=O)[C@@H](NC(=O)c2nnc(Cc3ccccc3)[nH]2)COc2cccnc21
participants with any serious TEAE (phase I multiple ascending dose; human, male and female; oral, 100 mg, 14 days): 0%

CC(C)n1c(Nc2cccnc2)nc2cnc(Nc3ccc(N4CCN(C)CC4)cc3)nc21
subjects with TEAE (measured: nervous system disorders (SOC); healthy human, male; oral, dose not given, CTCAE grade 1-3): 4.8%

C[C@@]1(c2cc(NC(=O)c3ccc(C#N)cn3)ccc2F)C=CSC(N)=N1
dose-normalised Cmax (elderly humans, both sexes, plasma; oral, 10 mg single dose): 8.39 ng/mL

CCN1/C(=C/C(C)=O)Sc2ccc(F)cc21
PR interval (cynomolgus monkey; oral, 100 mg/kg, 4 h post-dose): 92 ± 4 ms

O=C(NC[C@H]1CN(c2ccc(N3CCOCC3=O)cc2)C(=O)O1)c1ccc(Cl)s1
terminal half-life (healthy mixed-breed dogs, plasma; oral, 0.5 mg/kg every 12 h for 7 days, after last dose): 4 ± 2.1 h

C=CC(=O)NC1CCN(c2ncc3ncnc(Nc4ccc(Oc5ccc6c(c5)ncn6C)c(C)c4)c3n2)CC1
subjects with drug-related adverse events (healthy male volunteers; oral, 60 mg, 2 weeks): 13%

O=C(c1cc2cccnc2n1-c1ccc(Cl)c(Cl)c1)N1CC(F)(F)C1
hepatocyte share of uptake (mouse, perfused liver; 5 mg/kg, 30 min): ~99%

C#C[C@]1(O)CC[C@H]2[C@@H]3CCc4cc(O)ccc4[C@H]3CC[C@@]21C
intrinsic clearance (substrate depletion; Sprague-Dawley rat, male, liver S9; 3 µM, pH 7.4): 149 µL/min/mg

FC(F)(F)c1ccc(CNc2ccc(Cc3c[nH]c4ncc(Cl)cc34)cn2)cn1
treatment-related adverse events (measured: Fatigue; patients with advanced solid tumours, non-TGCT cohort; oral, 1000 mg/day, grade 3 or higher): 6%

[O]=[Co].[O]=[Co][O][Co]=[O]
creatinine-corrected cobalt concentration (rat, female, urine, 24-h collection; oral gavage, single, 300 mg/kg (220 mg Co/kg), day 1, vehicle 0.5% HPMC): 0.76 µg/µmol creatinine

C[C@H](NC(=O)[C@H](CCC(N)=O)NC(=O)[C@H](C)NC(=O)[C@H](CCCNC(=N)N)NC(=O)[C@H](CCC(N)=O)NC(=O)[C@H](C)NC(=O)[C@H](CCCNC(=N)N)NC(=O)[C@H](CCC(N)=O)NC(=O)[C@H](C)NC(=O)[C@H](CCC(N)=O)NC(=O)[C@H](CCCNC(=N)N)NC(=O)[C@H](C)NC(=O)[C@H](CCC(N)=O)NC(=O)[C@H](CCCNC(=N)N)NC(=O)[C@H](C)NC(=O)[C@H](CCC(N)=O)NC(=O)[C@H](C)NC(=O)[C@H](CCCNC(=N)N)NC(=O)[C@H](CCC(N)=O)NC(=O)[C@H](C)NC(=O)[C@H](CCCNC(=N)N)NC(=O)[C@H](CO)NC(=O)[C@H](Cc1ccc(O)c(I)c1)NC(=O)CNC(=O)CNC(=O)CN)C(=O)N[C@@H](CCCNC(=N)N)C(=O)N[C@@H](CCC(N)=O)C(=O)N[C@@H](C)C(=O)N[C@@H](CCCNC(=N)N)C(=O)N[C@@H](CCC(N)=O)C(=O)O [iodine-125 labelled]
tissue uptake (H2-Ld-huIL-6 Tg Balb/c mice, AA amyloidosis, spleen; intravenous, 4 h, decay-corrected): 12.5 %ID/g

C[C@@H]1CCO[C@H]2Cn3cc(C(=O)NCc4ccc(F)cc4F)c(=O)c(O)c3C(=O)N12
AUC(0-24) (population PK, post-hoc; children, 20 to <25 kg, plasma; oral, 22.4 mg granules, steady state, geometric mean): 61600 ng·h/mL

CNC(=O)c1ccccc1Nc1cc(Nc2ccc(N3CCOCC3)cc2OC)ncc1C(F)(F)F
solubility (0.1% w/v Soluplus buffer; 4 h, pH 6.8, 37 °C): 1000 µg/mL (≈ 1990 µM)

Cc1ccc(C(=O)N(CCCN)C(c2nc3snc(C)c3c(=O)n2Cc2ccccc2)C(C)C)cc1 (centres unmarked)
grade ≥3 hyperbilirubinemia patients (human patients; intravenous, 10 mg/day): 0%

C=CC(=O)N(C)CCOc1c(N)ncnc1-c1cc(F)cc(NC(=O)c2ccc(C3CC3)cc2F)c1C
AUC (human, whole blood; oral, 400 mg once daily, day 1): 977 ng·h/mL

CN(CCC(=O)O)C(=O)c1ccc2c(c1)CC[C@@H]1[C@@H]2CC[C@]2(C)C(c3cncc(F)c3)=CC[C@@H]12
direct bilirubin change (premenopausal women, endometriosis pain, serum; 60 mg twice daily, visit 4, mean; relative to: baseline): 0.21 mg/dL

CCOC(=O)N1C[C@@H](c2ccccc2O)N[C@@H](c2cccc(Br)c2)C1
logD (shake-flask, 1-octanol/buffer; pH 7.4): > 4.7

Cc1ccc(Sc2ccccc2N2CCNCC2)c(C)c1
participants with TEAE (measured: Diarrhea; healthy adult men; oral, 20 mg daily, 12 days): 0%

CCOC(=O)N1C[C@@H](c2ccccc2O)N[C@@H](c2cc(Cl)cc(Cl)c2)C1
logD (shake-flask, 1-octanol/buffer; pH 7.4): > 4.7

COc1cccc(NC(=O)CSc2nnnn2C)c1
logD (octanol/buffer; pH 7.4): 1.53

Cl.[2H]C([2H])([2H])CC(=O)c1cnc(NC(=O)C2CC2)cc1Nc1cccc(-c2ncn(C([2H])([2H])[2H])n2)c1OC
Tmax (human, fed, multiple dose; oral, 30 mg twice daily, tablet, day 14, median): 2.2 h

CC(C)c1nc(CN(C)C(=O)N[C@@H](CCN2CCOCC2)C(=O)N[C@H](CC[C@H](Cc2ccccc2)NC(=O)OCc2cncs2)Cc2ccccc2)cs1
grade 2 TEAE (human; oral, 150 mg, drug interaction trial): 7.7%

O=C1CCc2ccc(OCCCCN3CCN(c4cccc(Cl)c4Cl)CC3)cc2N1
adverse event incidence (measured: Rigidity; genotyped patients, CYP2D6 ultrarapid metabolizers; dose not given, long-acting oral or depot): 13%

CC(C)c1c(C(=O)Nc2ccccc2O)c(-c2ccccc2)c(-c2ccc(F)cc2)n1CC[C@@H]1C[C@@H](O)CC(=O)O1
chromatographic hydrophobicity index (reverse phase LC, C18; acetonitrile gradient, 0.1% formic acid; converted from retention time; relative to: Valko CHI standards): 103

CSc1cc(C)nc(SC)c1NC(=O)CN1CCN(CCSc2nc3ccccc3[nH]2)CC1.Cl
tissue concentration (mouse Crl:CD1 (ICR), female, cerebrum; intranasal, 10 µL of GA solution once daily for 7 days, 120 min after last dose): 1.5 ng/g and 1 ng/g and 1.6 ng/g

N#Cc1ccc2c(c1)[C@H]1CCCN(C(=O)c3ccc4[nH]cnc4c3)[C@H]1C2
ACTH level change (human; 40 mg, end of trial; relative to: baseline): 0.5 pmol/L

CC(C)(C(=O)N1CCOc2c(C#N)cncc2C1)C(F)F
subjects with TEAE (measured: haematochezia; human, both sexes; oral, 20 mg twice daily, 14 days, multiple ascending dose): 0%

CCc1cc(C(=O)NC)c2nccc(N3CCc4c(cc(Cn5ccnc5)cc4-c4cn(C)nc4C(F)(F)F)C3=O)c2c1
serum PLT change (Sprague Dawley rats; oral, 100 mg/kg once daily, 7 days; relative to: vehicle): 9.51%

CO[C@@H]1[C@H](OC(=O)N2CC(CCN3CCOCC3)C2)CC[C@]2(CO2)[C@H]1[C@@]1(C)O[C@@H]1CC=C(C)C
diastolic blood pressure (humans; subcutaneous, 0.6 mg twice weekly for 4 weeks, day 28; relative to: baseline): -1.8 ± 5.6 mmHg

C[C@@H](Oc1ccc(S(C)(=O)=O)cc1C(=O)N1C[C@@H]2C[C@]2(c2cc(C(F)(F)F)on2)C1)C(F)(F)F
%AUC extrapolated (healthy young humans, plasma; oral, 25 mg single dose): 35%

CC(C)(C)c1ccc([C@H]2COC[C@@H](C3CCCC3)N2)cc1
logD (shake-flask, 1-octanol/buffer; pH 7.4): > 4.7

Cc1cc(-c2nccc3c2ccn3CC(=O)Nc2ccc(-c3cnccn3)cn2)ccn1
subjects with any TEAE (human; 5 mg once daily, multiple ascending dose): 87.5%

COC(=O)c1ccc(NC(=O)CSc2nnc(-c3ccc(NC(C)=O)cc3)n2C)cc1
logD (octanol/buffer; pH 7.4): 2.33

CN(C)C/C=C/C(=O)Nc1cc2c(Nc3ccc(F)c(Cl)c3)ncnc2cc1O[C@H]1CCOC1
cysteine adduct formation (MES buffer; 100 µM, 23 h, pH 5.5, 37 °C, added: cysteine 10 mM): 92%

O=C(Nc1nc2cccc(-c3ccc(CN4CCS(=O)(=O)CC4)cc3)n2n1)C1CC1
treatment-emergent adverse events (measured: first degree atrioventricular block; human rheumatoid arthritis patients; oral, 150 mg once daily, 4 weeks, regardless of relatedness): 0%

CCOc1c([C@H](C)n2nc(C)c3c(N)ncnc32)cc(Cl)c(F)c1[C@@H]1CNC(=O)C1
ECG observations (measured: QRS ≤100 ms; previously treated B-cell malignancy; oral, 15 mg once daily, baseline below thresholds): 100%

CC[C@H](C)[C@H](NC(C)=O)C(=O)N[C@H]1CSSC[C@@H](C(=O)N[C@H](C(N)=O)[C@@H](C)O)NC(=O)[C@H](CCCNC(=N)N)NC(=O)[C@H](Cc2c[nH]cn2)NC(=O)[C@](C)(CC)NC(=O)CNC(=O)[C@H](Cc2c[nH]c3ccccc23)NC(=O)[C@H](CC(=O)O)NC(=O)[C@H](CCC(N)=O)NC(=O)[C@H](Cc2c[nH]c3ccccc23)NC(=O)[C@H](C(C)C)NC1=O
log retention factor (isocratic RP-HPLC, C18; 32% acetonitrile, phosphate pH 7.4, 1% TFA; 25 °C): 0.082

CN(C(=O)n1cnc(-c2ccc[n+]([O-])c2)c1)[C@H]1CC[C@H](O)CC1
concentration (Wistar rat, midbrain; oral, 10 mg/kg/day of BIA 10-2474, 4 h, repeated 5 days): 14.5 ± 1 ng/g

C[C@@H]1CN(CC(=O)N2CC(C)(C)c3nc(CO)c(Cc4ccc(F)cc4)cc32)[C@@H](CN2CCOC[C@H]2C)CN1
biliary clearance (Sprague Dawley rat, male, bile duct cannulated, bile; intravenous, 5 mg/kg): 2.5 mL/min/kg

CCC(=O)N(CCC(c1ccc2c(c1)OCO2)c1ccccc1OC)Cc1ccccc1 (centres unmarked)
GLU (female athymic nude mouse, blood; i.p., 60 mg/kg twice daily, 14 days, group mean): 194 mg/dL

Cc1cc(-c2nnc(N)nc2-c2ccc(F)cc2)cc(Cl)n1
patients with treatment-related adverse events (measured: Dizziness; human phase Ia/Ib NSCLC, post-immunotherapy; oral, 100 mg once daily): 11.8%

C[C@@H]1COCCN1c1cc(C2([S@](C)(=N)=O)CC2)nc(-c2cc[nH]c3nccc2-3)n1
Nasopharyngitis incidence (Japanese advanced solid tumour patients; oral, 240 mg twice daily, any grade): 16.7%

Excerpt of the above:
CC(C)(C)c1ccc([C@H]2COC[C@@H](C3CCCC3)N2)cc1
logD (shake-flask, 1-octanol/buffer; pH 7.4): > 4.7

[O]=[Co].[O]=[Co][O][Co]=[O]
creatinine-corrected cobalt concentration (rat, female, urine, 24-h collection; oral gavage, single, 300 mg/kg (220 mg Co/kg), day 1, vehicle 0.5% HPMC): 0.76 µg/µmol creatinine

COC(=O)c1ccc(NC(=O)CSc2nnc(-c3ccc(NC(C)=O)cc3)n2C)cc1
logD (octanol/buffer; pH 7.4): 2.33
